Results from different studies.
Compare with care: the assays were run in different laboratories. Values joined by “and” are separate records of one study, mostly repeats; a detail may differ. ± marks the error that the study gave. Values after ≈ are worked out from the molar mass of the structure shown.
OPRK1: Kappa-type opioid receptor (OPRK1, Homo sapiens, UniProt P41145)
NOX4: NADPH oxidase 4 (NOX4, Homo sapiens, UniProt Q9NPH5)
Slc6a4: Sodium-dependent serotonin transporter (Slc6a4, Rattus norvegicus, UniProt P31652)
Slc6a3: Sodium-dependent dopamine transporter (Slc6a3, Rattus norvegicus, UniProt P23977)
OPRM1: Mu-type opioid receptor (OPRM1, Homo sapiens, UniProt P35372)

By UniProt entry, the sequences of proteins in these tests, tags left out.
UniProt P41145, whole entry: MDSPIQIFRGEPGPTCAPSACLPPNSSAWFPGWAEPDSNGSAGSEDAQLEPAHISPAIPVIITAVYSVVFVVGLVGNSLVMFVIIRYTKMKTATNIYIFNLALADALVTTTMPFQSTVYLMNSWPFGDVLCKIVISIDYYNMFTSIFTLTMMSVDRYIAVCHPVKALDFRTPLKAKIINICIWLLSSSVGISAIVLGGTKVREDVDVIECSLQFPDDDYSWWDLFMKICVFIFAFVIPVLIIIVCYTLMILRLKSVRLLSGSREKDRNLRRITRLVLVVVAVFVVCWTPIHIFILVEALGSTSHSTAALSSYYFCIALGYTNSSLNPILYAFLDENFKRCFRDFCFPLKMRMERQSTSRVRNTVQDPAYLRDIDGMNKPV
UniProt Q9NPH5, whole entry: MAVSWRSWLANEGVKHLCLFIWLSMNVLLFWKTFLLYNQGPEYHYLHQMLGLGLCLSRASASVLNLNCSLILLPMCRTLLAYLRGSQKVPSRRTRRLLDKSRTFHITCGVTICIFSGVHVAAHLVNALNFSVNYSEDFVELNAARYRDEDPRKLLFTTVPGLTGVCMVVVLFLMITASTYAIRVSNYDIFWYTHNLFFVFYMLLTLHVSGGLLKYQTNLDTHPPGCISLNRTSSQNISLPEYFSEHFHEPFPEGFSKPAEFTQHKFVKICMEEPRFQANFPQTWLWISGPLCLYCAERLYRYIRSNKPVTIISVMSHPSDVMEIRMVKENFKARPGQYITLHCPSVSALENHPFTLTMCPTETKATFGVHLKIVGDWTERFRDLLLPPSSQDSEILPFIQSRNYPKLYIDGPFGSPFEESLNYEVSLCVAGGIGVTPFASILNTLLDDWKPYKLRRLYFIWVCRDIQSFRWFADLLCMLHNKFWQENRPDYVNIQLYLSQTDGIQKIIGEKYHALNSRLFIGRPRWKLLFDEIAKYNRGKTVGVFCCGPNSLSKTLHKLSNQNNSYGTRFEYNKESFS
UniProt P31652, whole entry: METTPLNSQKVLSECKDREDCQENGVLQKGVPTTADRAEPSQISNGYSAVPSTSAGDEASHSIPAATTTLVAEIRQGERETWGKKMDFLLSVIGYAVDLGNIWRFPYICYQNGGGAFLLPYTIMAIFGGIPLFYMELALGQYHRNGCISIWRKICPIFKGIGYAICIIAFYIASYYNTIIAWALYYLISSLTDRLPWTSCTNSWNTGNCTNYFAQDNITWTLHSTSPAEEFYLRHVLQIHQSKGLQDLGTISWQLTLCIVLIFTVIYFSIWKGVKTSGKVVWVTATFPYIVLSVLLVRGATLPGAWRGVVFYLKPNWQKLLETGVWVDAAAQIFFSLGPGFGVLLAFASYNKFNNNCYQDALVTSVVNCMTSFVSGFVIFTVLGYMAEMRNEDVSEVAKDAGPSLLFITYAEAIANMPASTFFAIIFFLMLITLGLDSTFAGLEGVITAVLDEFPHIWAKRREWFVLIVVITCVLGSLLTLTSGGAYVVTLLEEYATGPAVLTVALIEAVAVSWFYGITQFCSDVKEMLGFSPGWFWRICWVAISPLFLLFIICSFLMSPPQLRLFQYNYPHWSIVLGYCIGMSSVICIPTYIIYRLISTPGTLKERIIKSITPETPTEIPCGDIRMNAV
UniProt P23977, whole entry: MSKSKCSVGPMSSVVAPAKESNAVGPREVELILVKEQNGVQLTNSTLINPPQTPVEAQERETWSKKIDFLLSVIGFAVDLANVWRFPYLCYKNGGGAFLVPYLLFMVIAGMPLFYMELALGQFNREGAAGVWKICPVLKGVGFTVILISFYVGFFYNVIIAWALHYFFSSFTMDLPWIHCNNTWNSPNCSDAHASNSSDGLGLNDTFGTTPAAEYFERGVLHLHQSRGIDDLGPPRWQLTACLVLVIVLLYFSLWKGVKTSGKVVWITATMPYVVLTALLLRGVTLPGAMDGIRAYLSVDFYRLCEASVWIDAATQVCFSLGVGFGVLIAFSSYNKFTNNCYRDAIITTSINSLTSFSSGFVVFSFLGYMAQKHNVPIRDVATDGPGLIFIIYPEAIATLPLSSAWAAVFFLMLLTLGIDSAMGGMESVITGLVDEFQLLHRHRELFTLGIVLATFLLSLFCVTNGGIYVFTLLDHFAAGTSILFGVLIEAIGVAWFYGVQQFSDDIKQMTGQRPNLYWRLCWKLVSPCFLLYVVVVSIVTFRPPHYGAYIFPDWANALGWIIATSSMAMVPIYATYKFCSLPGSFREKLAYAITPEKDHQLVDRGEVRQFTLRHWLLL
UniProt P41143, whole entry: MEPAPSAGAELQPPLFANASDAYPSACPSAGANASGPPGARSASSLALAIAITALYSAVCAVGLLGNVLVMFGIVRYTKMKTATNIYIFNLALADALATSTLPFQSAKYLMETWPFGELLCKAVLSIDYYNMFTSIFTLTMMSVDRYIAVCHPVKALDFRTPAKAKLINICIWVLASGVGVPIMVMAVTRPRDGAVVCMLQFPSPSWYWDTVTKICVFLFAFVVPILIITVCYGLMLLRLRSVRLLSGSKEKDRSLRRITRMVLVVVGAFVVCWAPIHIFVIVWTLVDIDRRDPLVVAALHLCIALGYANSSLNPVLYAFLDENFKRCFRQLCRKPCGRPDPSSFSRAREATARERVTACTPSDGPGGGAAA
UniProt P21462, whole entry: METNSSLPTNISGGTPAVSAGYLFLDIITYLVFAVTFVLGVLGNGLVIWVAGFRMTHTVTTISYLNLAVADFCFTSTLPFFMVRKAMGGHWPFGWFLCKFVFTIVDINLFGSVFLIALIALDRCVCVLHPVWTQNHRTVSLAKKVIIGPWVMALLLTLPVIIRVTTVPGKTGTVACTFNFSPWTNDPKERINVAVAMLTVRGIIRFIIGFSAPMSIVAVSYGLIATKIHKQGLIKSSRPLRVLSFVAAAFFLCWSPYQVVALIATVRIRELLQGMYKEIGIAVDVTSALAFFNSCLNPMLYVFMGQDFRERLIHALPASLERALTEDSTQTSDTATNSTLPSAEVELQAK
UniProt P04757, whole entry, looked up: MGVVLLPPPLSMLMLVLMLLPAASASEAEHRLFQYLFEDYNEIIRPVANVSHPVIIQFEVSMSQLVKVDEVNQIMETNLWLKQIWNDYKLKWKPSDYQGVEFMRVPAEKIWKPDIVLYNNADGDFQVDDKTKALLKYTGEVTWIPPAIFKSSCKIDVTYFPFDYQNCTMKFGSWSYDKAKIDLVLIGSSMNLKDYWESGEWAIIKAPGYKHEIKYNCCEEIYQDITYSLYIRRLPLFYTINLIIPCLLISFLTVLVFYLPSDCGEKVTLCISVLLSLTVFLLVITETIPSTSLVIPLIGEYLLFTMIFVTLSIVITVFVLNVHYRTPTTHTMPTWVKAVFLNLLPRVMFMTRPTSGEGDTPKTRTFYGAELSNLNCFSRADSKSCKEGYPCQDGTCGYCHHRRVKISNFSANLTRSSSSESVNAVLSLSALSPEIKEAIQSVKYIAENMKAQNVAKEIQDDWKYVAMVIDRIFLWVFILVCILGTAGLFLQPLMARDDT
UniProt P12390, whole entry, looked up: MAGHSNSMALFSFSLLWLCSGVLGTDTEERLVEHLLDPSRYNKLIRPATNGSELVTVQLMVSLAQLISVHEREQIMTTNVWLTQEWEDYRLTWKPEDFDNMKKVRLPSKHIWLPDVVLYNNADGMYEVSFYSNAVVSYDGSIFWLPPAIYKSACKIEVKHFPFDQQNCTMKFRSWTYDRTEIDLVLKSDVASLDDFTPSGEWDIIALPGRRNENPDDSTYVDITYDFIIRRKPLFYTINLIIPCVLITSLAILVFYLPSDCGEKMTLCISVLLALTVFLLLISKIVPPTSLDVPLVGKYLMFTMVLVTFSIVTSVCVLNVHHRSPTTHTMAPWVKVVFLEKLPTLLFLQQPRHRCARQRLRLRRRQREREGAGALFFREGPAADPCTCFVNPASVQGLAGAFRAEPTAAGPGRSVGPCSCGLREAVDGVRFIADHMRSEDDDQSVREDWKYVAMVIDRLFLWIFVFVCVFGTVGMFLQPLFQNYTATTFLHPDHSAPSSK
UniProt P43143, whole entry M241L/F253L/V303I/V320I/I327V/A333T/K339T, looked up: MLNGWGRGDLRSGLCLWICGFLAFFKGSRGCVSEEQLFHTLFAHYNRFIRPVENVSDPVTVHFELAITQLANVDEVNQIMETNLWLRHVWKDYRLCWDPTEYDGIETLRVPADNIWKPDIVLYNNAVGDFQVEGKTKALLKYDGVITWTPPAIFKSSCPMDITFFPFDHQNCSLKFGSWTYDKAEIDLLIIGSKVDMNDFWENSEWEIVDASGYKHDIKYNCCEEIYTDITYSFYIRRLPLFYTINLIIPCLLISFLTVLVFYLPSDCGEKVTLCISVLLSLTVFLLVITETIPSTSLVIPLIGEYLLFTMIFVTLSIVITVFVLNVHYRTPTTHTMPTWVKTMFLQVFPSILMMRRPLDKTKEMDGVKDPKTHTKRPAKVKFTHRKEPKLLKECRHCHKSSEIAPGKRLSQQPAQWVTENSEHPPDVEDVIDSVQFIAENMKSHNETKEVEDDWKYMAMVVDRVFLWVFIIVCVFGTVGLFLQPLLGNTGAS
UniProt Q9Y5S8, whole entry: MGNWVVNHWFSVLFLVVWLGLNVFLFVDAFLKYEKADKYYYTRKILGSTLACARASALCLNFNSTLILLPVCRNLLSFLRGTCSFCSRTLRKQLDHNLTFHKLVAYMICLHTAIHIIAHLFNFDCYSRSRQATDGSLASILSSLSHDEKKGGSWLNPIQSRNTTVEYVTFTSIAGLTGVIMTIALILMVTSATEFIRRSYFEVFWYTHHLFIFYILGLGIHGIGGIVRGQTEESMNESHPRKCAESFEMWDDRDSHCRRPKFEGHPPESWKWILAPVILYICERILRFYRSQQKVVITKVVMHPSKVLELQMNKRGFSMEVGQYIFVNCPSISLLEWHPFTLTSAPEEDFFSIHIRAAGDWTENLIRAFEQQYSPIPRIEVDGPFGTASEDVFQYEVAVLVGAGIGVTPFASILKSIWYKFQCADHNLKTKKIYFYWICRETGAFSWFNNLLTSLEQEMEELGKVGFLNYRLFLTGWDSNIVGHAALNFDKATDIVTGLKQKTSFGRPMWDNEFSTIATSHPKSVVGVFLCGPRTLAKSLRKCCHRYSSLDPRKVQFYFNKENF
UniProt P33535, whole entry: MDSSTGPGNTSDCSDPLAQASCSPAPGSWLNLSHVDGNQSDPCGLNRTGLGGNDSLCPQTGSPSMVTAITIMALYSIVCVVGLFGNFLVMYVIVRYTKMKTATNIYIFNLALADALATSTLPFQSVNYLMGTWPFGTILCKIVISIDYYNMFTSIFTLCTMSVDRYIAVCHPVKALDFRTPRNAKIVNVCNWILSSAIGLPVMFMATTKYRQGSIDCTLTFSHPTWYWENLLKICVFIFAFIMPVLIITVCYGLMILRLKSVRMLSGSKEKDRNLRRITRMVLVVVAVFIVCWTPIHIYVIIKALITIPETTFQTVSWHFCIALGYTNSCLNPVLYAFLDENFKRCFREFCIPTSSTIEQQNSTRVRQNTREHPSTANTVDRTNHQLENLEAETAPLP
UniProt P08908, whole entry: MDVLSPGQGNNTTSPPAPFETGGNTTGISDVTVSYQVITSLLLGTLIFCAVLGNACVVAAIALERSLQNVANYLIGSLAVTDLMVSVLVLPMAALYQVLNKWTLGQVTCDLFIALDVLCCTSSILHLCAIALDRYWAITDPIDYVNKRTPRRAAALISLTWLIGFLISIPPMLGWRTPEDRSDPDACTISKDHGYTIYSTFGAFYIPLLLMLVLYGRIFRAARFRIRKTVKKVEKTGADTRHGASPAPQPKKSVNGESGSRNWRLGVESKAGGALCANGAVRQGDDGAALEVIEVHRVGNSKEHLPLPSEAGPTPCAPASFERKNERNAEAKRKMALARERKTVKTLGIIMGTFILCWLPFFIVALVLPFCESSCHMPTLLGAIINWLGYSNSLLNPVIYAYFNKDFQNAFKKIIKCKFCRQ
UniProt P04839, whole entry, looked up: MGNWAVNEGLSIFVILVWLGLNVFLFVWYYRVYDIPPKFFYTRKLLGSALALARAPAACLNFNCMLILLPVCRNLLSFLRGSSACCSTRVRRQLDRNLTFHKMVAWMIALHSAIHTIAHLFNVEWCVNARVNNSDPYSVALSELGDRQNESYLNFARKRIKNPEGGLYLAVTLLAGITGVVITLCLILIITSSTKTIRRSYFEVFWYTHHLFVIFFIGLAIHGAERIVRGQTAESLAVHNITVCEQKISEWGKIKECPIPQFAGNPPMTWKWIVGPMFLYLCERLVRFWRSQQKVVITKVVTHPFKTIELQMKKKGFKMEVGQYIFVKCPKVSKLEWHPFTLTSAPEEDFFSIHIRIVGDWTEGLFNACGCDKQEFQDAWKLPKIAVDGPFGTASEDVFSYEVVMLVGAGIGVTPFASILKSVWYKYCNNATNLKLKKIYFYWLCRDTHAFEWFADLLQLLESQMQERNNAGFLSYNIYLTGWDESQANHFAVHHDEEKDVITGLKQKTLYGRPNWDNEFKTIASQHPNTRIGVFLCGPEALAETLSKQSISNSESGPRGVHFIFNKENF
UniProt P13498, whole entry partner: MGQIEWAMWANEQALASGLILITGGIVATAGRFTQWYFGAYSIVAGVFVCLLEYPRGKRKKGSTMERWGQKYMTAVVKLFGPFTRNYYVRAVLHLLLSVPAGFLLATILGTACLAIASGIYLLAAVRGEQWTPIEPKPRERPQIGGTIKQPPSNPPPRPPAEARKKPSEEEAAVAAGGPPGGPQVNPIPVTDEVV

Structure (SMILES) | tested on | test | test system | conditions | how to read | measurement | result
CO[C@]12CC[C@@]3(C[C@@H]1[C@@](C)(O)c1ccc(C(C)(C)C)cc1)[C@H]1Cc4ccc(O)c5c4[C@@]3(CCN1CC1CC1)[C@H]2O5 | OPRK1 | radioligand binding | CHO | with: [3H]U69593 |  | Ki | 0.00892 ± 0.00034 µM
c1ccc(Cn2nnc3c(Sc4nc5ncccc5o4)ncnc32)cc1 | NOX4 | enzyme activity, inhibitor, Amplex Red | cell-free membranes |  |  | IC50 | 41 ± 4 µM
CO[C@]12C=C[C@@]3(C[C@@H]1[C@H](O)c1ccccc1)[C@H]1Cc4ccc(O)c5c4[C@@]3(CCN1CC1CC1)[C@H]2O5 | OPRK1 | binding, radioligand displacement | CHO | with: [3H]U-69593 |  | Ki | 0.0038 ± 0.00074 µM
Cc1cc(O)ccc1O | Probable HTH-type transcriptional regulator YhaJ, effector-binding domain (yhaJ, Escherichia coli, UniProt P67660) | microscale thermophoresis |  | pH 7.5, primary effector site sample A |  | Kd | 11000 ± 3700 µM
CO[C@]12CC[C@@]3(C[C@@H]1[C@H](O)c1ccccc1)[C@H]1Cc4ccc(O)c5c4[C@@]3(CCN1CC1CC1)[C@H]2O5 | OPRD1 (Homo sapiens, UniProt P41143) | binding, radioligand displacement | CHO | with: [3H]DPDPE |  | Ki | 0.0026 ± 0.00022 µM
CC[C@H](C)[C@H](NC(=O)[C@H](Cc1ccc(O)cc1)NC(=O)[C@H](CCC(N)=O)NC(=O)[C@@H](N)CCC(=O)O)C(=O)N[C@@H](CCCCN)C(=O)N[C@@H](Cc1c[nH]c2ccccc12)C(=O)N1CCC[C@H]1C(=O)N[C@@H](Cc1c[nH]c2ccccc12)C(=O)N[C@@H](Cc1ccc(O)cc1)C(=O)N[C@H](C(=O)N[C@@H](Cc1c[nH]c2ccccc12)C(=O)N[C@@H](CC(C)C)C(=O)O)C(C)C | FPR1 (Homo sapiens, UniProt P21462) | binding, competition binding |  | 4 °C, with: formyl-Nle-Leu-Phe-Nle-Tyr-Lys-FITC 0.3 nM |  | Ki | 2.05 ± 0.107 µM
CC(C)C[C@@H]1NC(=O)[C@H](CCC(=O)O)NC(=O)[C@@H]2CCCN2C(=O)[C@H](Cc2c[nH]cn2)NC(=O)[C@H](CCCCC(=O)O)NC(=O)[C@H](CC(C)C)NC(=O)[C@H](Cc2c[nH]cn2)NC(=O)[C@@H]2CSSC[C@H](NC(=O)CN)C(=O)N[C@@H](CSSC[C@@H](C(N)=O)NC1=O)C(=O)N[C@@H](CO)C(=O)N[C@@H](Cc1c[nH]cn1)C(=O)N1CCC[C@H]1C(=O)N[C@@H](C)C(=O)N2 | Chrna3/Chrnb2/Chrna6, with beta3 subunit (Rattus norvegicus, UniProt P04757+P12390+P43143) | ion current, antagonist, two-electrode voltage clamp | Xenopus laevis oocytes | with: 100 µM acetylcholine |  | IC50 | 0.0223 µM
CC(C)c1ccc2nc(Sc3ncnc4c3nnn4Cc3ccccc3)oc2c1 | NADPH oxidase 1 (NOX1, Homo sapiens, UniProt Q9Y5S8) | enzyme activity, inhibitor, Amplex Red | cell-free membranes |  |  | IC50 | > 100 µM
CCN1CCN(Cc2ccc(NC(=O)c3ccc(C)c(/C=C/c4cnc5[nH]ccc5c4OC)c3)cc2C(F)(F)F)CC1 | ETV6-FLT3 fusion | kinase-CDC37 interaction, inhibitor | human cells | 5 µM | baseline: vehicle | log2 fold change | -2.16
CO[C@]12CC[C@@]3(C[C@@H]1[C@](C)(O)c1ccccc1C)[C@H]1Cc4ccc(O)c5c4[C@@]3(CCN1CC1CC1)[C@H]2O5 | Oprm1 (Rattus norvegicus, UniProt P33535) | binding, radioligand displacement | C6 rat glioma | with: [3H]diprenorphine |  | Ki | 0.00019 ± 8e-05 µM
COc1cccc2c(CCN)c[nH]c12 | Slc6a4 | serotonin release, releaser | rat brain synaptosomes |  |  | EC50 | 0.0446 ± 0.0038 µM
COC(=O)COc1ccc2nc3ccc(=O)cc-3oc2c1 | Mycobacterium tuberculosis |  | mc2 6206 bedaquiline-resistant MmpL5 regulator mutant | 7 days |  | MIC90 | 46 µM (≈ 13.1 µg/mL)
CCCN1CCN(c2ccc3c(c2)C2CC3CCN2C(=O)OCc2ccccc2)CC1 (stereo not drawn) | HTR1A (Homo sapiens, UniProt P08908) | binding, radioligand binding |  |  |  | Ki | 1.19 µM
NCCc1c[nH]c2cc(F)ccc12 | Slc6a4 | serotonin release, releaser | rat brain synaptosomes |  |  | EC50 | 0.0044 ± 0.0004 µM
Fc1ccc2nc(Sc3ncnc4c3nnn4Cc3ccccc3)oc2c1 | NADPH oxidase 2 (CYBB, Homo sapiens, UniProt P04839) | enzyme activity, inhibitor, MCLA chemiluminescence | cell-free membranes |  |  | IC50 | > 100 µM
CO[C@]12CC[C@@]3(C[C@@H]1[C@](C)(O)c1ccccc1)[C@H]1Cc4ccc(O)c5c4[C@@]3(CCN1CC1CC1)[C@H]2O5 | OPRK1 | G-protein activation, antagonist |  | with: U-69593 |  | Kb | 0.00027 µM
CC(C)Oc1ccc2nc3ccc(=O)cc-3oc2c1 | Mycobacterium tuberculosis |  | mc2 6206 bedaquiline-resistant MmpL5 regulator mutant | 7 days |  | MIC90 | 88 µM (≈ 22.5 µg/mL)
NCCc1c[nH]c2ccc(Br)cc12 | Slc6a3 | dopamine release, releaser | rat brain synaptosomes |  |  | EC50 | 0.478 µM and < 0.5 µM
CC#C/C(=N\OC[C@H]1COCCN1)c1ccc2ncnc(Nc3ccc(OCc4cccc(F)c4)c(Cl)c3)c2c1 | TNK2 (Homo sapiens, UniProt Q07912) | kinase activity |  | 10 µM |  | inhibition | 30.6%
CC[C@H](N)Cc1c[nH]c2ccccc12 | Slc6a3 | dopamine release, releaser | rat brain synaptosomes |  |  | EC50 | 0.654 ± 0.05 µM
CC[C@@](O)(c1ccccc1)[C@H]1C[C@@]23CC[C@]1(OC)[C@@H]1Oc4c(O)ccc5c4[C@@]12CCN(CC1CC1)[C@@H]3C5 | OPRM1 | G-protein activation, agonist |  |  | baseline: DAMGO | EC50 | 0.0184 ± 0.0057 µM
Cn1cc(CCN)c2ccccc21 | Slc6a3 | dopamine release, releaser | rat brain synaptosomes |  |  | EC50 | > 10 µM
CC[C@@](O)(c1ccccc1)[C@H]1C[C@@]23C=C[C@]1(OC)[C@@H]1Oc4c(O)ccc5c4[C@@]12CCN(CC1CC1)[C@@H]3C5 | OPRM1 | binding, radioligand displacement | CHO | with: [3H]DAMGO |  | Ki | 0.0032 ± 0.00038 µM
NCCc1c[nH]c2ccc(F)cc12 | Slc6a3 | dopamine release, releaser | rat brain synaptosomes |  |  | EC50 | 0.0823 ± 0.0068 µM
C=C(C)[C@@H]1[C@H]2OC(=O)[C@@H]1[C@]1(O)C[C@H]3O[C@]34C(=O)O[C@H]2[C@]14C | GABA-A receptor; alpha-2/beta-3/gamma-2 (Homo sapiens, UniProt P18507+P28472+P47869) | chloride current, inhibitor, whole-cell voltage clamp | L929 | 3 min preincubation, with: GABA at EC90 |  | IC50 | 7.5 µM
COc1ccc2c(CCN)c[nH]c2c1 | Slc6a4 | serotonin release, releaser | rat brain synaptosomes |  |  | EC50 | 0.0538 ± 0.0054 µM
FC(F)(F)c1ccc2nc(Sc3ncnc4c3nnn4Cc3ccccc3)oc2c1 | NOX4 | enzyme activity, inhibitor, Amplex Red | cell-free membranes |  |  | IC50 | > 100 µM

Excerpt of the above:
Structure (SMILES) | tested on | test | test system | conditions | how to read | measurement | result
NCCc1c[nH]c2cc(F)ccc12 | Slc6a4 | serotonin release, releaser | rat brain synaptosomes |  |  | EC50 | 0.0044 ± 0.0004 µM
Fc1ccc2nc(Sc3ncnc4c3nnn4Cc3ccccc3)oc2c1 | NADPH oxidase 2 (CYBB, Homo sapiens, UniProt P04839) | enzyme activity, inhibitor, MCLA chemiluminescence | cell-free membranes |  |  | IC50 | > 100 µM
CO[C@]12CC[C@@]3(C[C@@H]1[C@](C)(O)c1ccccc1)[C@H]1Cc4ccc(O)c5c4[C@@]3(CCN1CC1CC1)[C@H]2O5 | OPRK1 | G-protein activation, antagonist |  | with: U-69593 |  | Kb | 0.00027 µM
CC(C)Oc1ccc2nc3ccc(=O)cc-3oc2c1 | Mycobacterium tuberculosis |  | mc2 6206 bedaquiline-resistant MmpL5 regulator mutant | 7 days |  | MIC90 | 88 µM (≈ 22.5 µg/mL)
